Measured values collected from several papers.
Each numbered part is a random draw from the data of one study; scales do not carry over between parts. Changes are numbered by the printed parent chain.

Block 1 — method: protein-binding microarray; molecule type: double-stranded DNA, one strand shown; medium: in vitro; tested at: not given; direction: higher = stronger binding
Target: Protein max, full length (MAX, Homo sapiens, UniProt P61244-2, residues 1-151)
Notes: k-mer, scored over probes, only values ≥0.25
Strand | E-score
ATGCTTGC | 0.255
CGTGTGCC | 0.372
ACGCCGTC | 0.27
GGCAGCAC | 0.259
AGTCATGC | 0.406
AACATCGT | 0.273
AATCACGA | 0.295
ATGCCATG | 0.346

Block 2 — target: CCNB2, cyclin fold, Cln2 fusion (human); method: yeast growth competition, sequencing; medium: yeast; notes: weak parent motif; baseline: not given; direction: higher = stronger binding
Starting sequence: RBL2 docking peptide (human); STTRRRLFVENDS
Substitution | normalised enrichment score
T2V | 0.372
N11L | 0.616
R6D | 0.191
R6V | 0.435
V9M | 0.812
T3W | 0.616
T3A | 0.252
N11A | 0.149

Block 3 — method: Spec-seq; molecule type: double-stranded DNA, one strand shown; medium: in vitro; tested at: not given; notes: whole probe, mean of replicates; baseline: not given; direction: lower = stronger binding; constant ends, left off below: GAGTCGTCTCGTCAGCAC … CCGTAGAGCACTCAGGTC
Target: POU, POU domain (Salpingoeca helianthica)
Residues (chain): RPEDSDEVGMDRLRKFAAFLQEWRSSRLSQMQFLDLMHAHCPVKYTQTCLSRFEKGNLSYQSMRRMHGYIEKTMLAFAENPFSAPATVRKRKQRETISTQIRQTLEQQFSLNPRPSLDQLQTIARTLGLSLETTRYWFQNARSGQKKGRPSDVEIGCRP
Strand | relative binding energy
ACCATAAT | 0.699 ln ratio
TATATAAT | 0.0511 ln ratio
ATGCTACC | 1.3 ln ratio
ATTCACAT | 1.07 ln ratio
TCTCTAAT | 0.639 ln ratio
ATGCGAAG | 1.53 ln ratio
ATCATTAT | -0.4 ln ratio
ATGCACGT | 1.25 ln ratio
ATGCGCCG | 1.1 ln ratio

Mixed results
Molecule | target | test | test system | setting | scale | endpoint | result
PhoQ, residues 284 288 289 292 302 303 GLASVI | PhoP, residues 12 14 15 18 19 NHFRA (Escherichia coli, UniProt P23836) | Sort-seq, item: YFP reporter | E. coli | PhoQ-PhoP variant library, added: 10 µM Mg2+ | baseline: high Mg2+ state, higher = stronger signaling | fold induction | 1.26

Repeated from above (block 3):
Strand | relative binding energy
TCTCTAAT | 0.639 ln ratio
ATGCGAAG | 1.53 ln ratio
ATCATTAT | -0.4 ln ratio
